Assay results of several laboratories.
Lines come from different studies, so protocols differ. “And” joins repeats or separate records; there may be more than shown. ± marks the error that the study gave.
CYP2E1: Cytochrome P450 2E1 (CYP2E1, Homo sapiens, UniProt P05181)
Chain of UniProt P05181 (whole entry, looked up): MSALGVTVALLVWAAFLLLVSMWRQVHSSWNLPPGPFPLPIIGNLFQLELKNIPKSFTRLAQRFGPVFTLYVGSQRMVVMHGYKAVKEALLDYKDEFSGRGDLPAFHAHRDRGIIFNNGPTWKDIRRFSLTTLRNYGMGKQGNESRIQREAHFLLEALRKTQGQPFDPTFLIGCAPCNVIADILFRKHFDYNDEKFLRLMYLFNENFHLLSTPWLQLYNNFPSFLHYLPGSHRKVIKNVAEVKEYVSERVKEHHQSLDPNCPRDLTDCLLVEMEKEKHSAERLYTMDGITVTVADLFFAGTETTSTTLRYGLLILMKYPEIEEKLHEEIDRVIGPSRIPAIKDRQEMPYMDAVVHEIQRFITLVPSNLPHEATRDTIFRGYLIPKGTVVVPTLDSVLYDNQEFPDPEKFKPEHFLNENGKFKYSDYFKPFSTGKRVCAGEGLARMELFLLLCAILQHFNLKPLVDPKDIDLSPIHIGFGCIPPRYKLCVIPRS
CYP2C9: Cytochrome P450 2C9 (CYP2C9, Homo sapiens, UniProt P11712)
Melanocortin receptor 5: Melanocortin receptor 5 (Mus musculus, UniProt P41149)
Chain of UniProt P41149 (whole entry, looked up): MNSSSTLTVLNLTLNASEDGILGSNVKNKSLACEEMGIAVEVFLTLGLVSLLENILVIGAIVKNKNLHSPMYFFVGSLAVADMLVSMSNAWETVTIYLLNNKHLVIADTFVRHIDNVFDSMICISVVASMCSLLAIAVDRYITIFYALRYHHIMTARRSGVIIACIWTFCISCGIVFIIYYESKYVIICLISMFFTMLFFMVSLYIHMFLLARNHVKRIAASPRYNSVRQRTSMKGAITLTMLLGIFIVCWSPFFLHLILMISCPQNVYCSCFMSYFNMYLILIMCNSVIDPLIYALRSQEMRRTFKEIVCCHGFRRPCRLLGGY
Abcg2: Broad substrate specificity ATP-binding cassette transporter ABCG2 (Abcg2, Rattus norvegicus, UniProt Q80W57)
Chain of UniProt O15244 (whole entry, looked up): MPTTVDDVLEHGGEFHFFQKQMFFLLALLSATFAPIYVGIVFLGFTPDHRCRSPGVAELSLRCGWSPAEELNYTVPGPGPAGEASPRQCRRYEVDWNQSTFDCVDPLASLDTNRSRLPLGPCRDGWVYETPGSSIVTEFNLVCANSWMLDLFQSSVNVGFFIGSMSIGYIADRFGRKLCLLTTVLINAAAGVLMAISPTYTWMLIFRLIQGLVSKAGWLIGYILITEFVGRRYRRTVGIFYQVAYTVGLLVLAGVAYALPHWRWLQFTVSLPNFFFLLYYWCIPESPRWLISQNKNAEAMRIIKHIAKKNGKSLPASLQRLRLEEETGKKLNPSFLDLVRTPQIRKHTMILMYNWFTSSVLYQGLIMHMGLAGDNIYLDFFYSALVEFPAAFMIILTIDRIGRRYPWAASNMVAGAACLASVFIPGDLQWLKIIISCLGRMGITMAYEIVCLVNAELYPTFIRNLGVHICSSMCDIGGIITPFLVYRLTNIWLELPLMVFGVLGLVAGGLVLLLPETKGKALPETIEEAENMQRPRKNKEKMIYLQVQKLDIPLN
Chain of UniProt Q80W57 (whole entry, looked up): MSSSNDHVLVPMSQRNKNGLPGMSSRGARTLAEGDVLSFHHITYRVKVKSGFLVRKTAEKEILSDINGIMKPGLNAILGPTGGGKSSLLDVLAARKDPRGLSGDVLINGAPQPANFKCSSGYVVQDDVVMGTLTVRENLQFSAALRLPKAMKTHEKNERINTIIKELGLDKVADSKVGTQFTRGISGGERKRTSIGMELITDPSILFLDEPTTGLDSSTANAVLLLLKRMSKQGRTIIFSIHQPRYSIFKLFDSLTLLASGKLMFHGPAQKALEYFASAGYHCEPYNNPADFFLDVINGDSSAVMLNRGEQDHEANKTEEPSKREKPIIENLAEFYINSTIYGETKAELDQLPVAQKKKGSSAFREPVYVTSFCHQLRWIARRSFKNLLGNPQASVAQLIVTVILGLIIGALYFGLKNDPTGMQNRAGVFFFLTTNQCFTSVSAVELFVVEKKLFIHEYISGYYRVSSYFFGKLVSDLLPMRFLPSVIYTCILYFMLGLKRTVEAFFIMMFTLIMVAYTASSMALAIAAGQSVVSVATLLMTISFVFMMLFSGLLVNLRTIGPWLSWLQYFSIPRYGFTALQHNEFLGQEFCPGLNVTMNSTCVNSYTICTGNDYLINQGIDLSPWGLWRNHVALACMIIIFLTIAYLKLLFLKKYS
Chain of UniProt P22310 (whole entry, looked up): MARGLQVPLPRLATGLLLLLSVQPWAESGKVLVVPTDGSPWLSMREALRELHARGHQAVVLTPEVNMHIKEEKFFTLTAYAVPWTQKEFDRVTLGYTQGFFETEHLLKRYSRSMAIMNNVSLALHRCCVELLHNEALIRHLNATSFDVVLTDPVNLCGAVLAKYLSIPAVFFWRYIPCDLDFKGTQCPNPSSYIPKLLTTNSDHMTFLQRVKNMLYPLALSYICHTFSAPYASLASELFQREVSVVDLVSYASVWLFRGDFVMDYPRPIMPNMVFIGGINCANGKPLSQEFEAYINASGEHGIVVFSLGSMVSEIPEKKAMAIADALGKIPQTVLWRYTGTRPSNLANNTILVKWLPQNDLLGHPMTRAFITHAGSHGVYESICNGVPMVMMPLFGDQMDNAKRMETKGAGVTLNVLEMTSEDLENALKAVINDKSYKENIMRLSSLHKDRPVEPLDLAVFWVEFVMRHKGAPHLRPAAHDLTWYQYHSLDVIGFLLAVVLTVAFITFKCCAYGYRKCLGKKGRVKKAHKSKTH
Chain of UniProt Q8TCC7 (whole entry, looked up): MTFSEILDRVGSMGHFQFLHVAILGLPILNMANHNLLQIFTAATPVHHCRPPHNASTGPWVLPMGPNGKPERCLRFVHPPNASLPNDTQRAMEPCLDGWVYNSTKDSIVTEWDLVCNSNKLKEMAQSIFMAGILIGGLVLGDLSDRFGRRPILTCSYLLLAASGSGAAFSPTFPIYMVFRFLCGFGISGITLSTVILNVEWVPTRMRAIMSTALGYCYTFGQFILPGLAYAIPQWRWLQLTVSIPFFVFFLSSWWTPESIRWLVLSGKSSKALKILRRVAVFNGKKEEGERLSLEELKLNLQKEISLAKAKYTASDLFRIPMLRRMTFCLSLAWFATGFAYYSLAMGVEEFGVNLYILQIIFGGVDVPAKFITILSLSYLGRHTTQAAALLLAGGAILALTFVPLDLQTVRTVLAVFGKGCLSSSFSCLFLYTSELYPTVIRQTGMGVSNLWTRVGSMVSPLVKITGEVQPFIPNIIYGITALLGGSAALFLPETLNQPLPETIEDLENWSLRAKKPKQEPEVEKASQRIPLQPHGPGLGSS
Chain of UniProt Q00519 (whole entry, looked up): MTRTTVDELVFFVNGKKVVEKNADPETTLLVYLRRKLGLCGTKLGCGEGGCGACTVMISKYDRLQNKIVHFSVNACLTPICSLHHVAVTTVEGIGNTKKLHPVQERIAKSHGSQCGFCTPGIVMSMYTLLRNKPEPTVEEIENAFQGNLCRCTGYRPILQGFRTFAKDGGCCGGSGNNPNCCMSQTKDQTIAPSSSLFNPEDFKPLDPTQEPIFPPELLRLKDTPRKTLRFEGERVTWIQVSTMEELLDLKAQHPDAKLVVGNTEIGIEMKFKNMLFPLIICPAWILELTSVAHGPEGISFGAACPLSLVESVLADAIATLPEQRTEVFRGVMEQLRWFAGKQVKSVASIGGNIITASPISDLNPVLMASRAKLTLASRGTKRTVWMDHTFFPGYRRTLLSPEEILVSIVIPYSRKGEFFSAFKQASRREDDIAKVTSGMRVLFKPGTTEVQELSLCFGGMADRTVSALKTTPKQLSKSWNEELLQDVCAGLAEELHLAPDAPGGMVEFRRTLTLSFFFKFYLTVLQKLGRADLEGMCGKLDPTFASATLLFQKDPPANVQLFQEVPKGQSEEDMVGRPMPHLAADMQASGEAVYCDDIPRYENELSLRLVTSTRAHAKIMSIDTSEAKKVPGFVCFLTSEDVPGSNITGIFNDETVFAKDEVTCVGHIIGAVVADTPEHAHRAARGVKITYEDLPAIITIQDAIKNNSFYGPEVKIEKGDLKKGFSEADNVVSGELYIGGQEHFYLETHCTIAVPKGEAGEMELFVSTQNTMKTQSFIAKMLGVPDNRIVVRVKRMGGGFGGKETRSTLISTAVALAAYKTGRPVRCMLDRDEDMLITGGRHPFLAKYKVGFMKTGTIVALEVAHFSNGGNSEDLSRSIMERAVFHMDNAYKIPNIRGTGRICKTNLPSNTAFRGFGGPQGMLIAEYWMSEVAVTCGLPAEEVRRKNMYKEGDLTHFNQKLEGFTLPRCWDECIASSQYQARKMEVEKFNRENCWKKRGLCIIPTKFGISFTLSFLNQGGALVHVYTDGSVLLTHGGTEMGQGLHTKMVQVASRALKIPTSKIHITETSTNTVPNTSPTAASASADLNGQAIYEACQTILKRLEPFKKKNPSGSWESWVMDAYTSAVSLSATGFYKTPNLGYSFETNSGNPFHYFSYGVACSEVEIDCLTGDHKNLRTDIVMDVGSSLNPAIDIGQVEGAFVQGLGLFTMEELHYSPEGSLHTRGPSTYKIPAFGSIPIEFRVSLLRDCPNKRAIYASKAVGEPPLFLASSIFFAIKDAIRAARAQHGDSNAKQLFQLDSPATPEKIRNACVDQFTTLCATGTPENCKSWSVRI
Chain of UniProt P11509 (whole entry, looked up): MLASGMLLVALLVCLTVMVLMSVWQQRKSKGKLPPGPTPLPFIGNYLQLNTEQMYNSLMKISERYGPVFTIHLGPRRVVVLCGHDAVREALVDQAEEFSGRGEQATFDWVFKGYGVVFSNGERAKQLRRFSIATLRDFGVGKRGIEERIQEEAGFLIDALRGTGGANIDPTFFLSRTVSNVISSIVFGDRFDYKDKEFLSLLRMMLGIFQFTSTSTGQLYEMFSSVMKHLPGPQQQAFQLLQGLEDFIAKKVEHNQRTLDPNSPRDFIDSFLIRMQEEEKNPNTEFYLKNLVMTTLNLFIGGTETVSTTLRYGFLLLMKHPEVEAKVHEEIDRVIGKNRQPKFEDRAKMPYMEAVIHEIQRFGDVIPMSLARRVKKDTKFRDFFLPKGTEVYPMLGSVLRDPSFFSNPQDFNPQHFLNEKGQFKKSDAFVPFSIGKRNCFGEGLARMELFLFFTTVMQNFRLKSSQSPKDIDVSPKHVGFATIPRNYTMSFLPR

Substance	tested on	assay	test system	setting	scale	quantity	result
CC(C)[C@H](NC(=O)[C@@H]1CCCN1C(=O)[C@H](CCCNC(=N)N)NC(=O)[C@H](CS)NC(=O)[C@H](Cc1c[nH]c2ccccc12)NC(=O)[C@H](CCCNC(=N)N)NC(=O)[C@@H](Cc1ccccc1)NC(=O)[C@H](Cc1c[nH]cn1)NC(=O)[C@H](CCC(=O)O)NC(=O)[C@H](CS)NC(=O)[C@H](CS)NC(=O)[C@H](CCCCN)NC(=O)[C@@H]1CC(=O)N[C@@H](CCCNC(=N)N)C(=O)N[C@@H](C)C(=O)N[C@@H](CC(=O)O)C(=O)N[C@H](Cc2ccc(O)cc2)C(=O)N1)C(N)=O [technetium-99m labelled]	–	–	C57 mice, blood	intravenous, 0.037 MBq, 0.5 h	–	tissue uptake	3.46 ± 0.5 %ID/g
CC[C@H](C)[C@H](NC(=O)[C@H](CCC(=O)O)NC(=O)[C@H](CO)NC(=O)[C@@H](NC(=O)[C@@H](N)CO)C(C)C)C(=O)N[C@@H](CCC(N)=O)C(=O)N[C@@H](CC(C)C)C(=O)N[C@@H](CCSC)C(=O)N[C@@H](Cc1cnc[nH]1)C(=O)N[C@@H](CC(N)=O)C(=O)N[C@@H](CC(C)C)C(=O)NCC(=O)N[C@@H](CCCCN)C(=O)N[C@@H](Cc1cnc[nH]1)C(=O)N[C@@H](CC(C)C)C(=O)N[C@@H](CC(N)=O)C(=O)N[C@@H](CO)C(=O)N[C@@H](CCSC)C(=O)N[C@@H](CCC(=O)O)C(=O)N[C@@H](CCCN=C(N)N)C(=O)N[C@H](C(=O)N[C@@H](CCC(=O)O)C(=O)N[C@@H](Cc1c[nH]c2ccccc12)C(=O)N[C@@H](CC(C)C)C(=O)N[C@@H](CCCN=C(N)N)C(=O)N[C@@H](CCCCN)C(=O)N[C@@H](CCCCN)C(=O)N[C@@H](CC(C)C)C(=O)N[C@@H](CCC(N)=O)C(=O)N[C@@H](CC(=O)O)C(=O)N[C@H](C(=O)N[C@@H](Cc1cnc[nH]1)C(=O)N[C@@H](CC(N)=O)C(=O)N[C@@H](Cc1ccccc1)C(=O)O)C(C)C)C(C)C	chymotrypsin (bovine pancreas)	proteolytic degradation, HPLC-UV	–	0.5 mg/mL, 1.0 h, pH 6.5, 37 °C, added: chymotrypsin with soybean trypsin inhibitor	–	remaining intact compound	13 ± 1%
O=c1[nH]c(=O)c2[nH]cnc2[nH]1	Xdh (Mus musculus, UniProt Q00519)	substrate	LCN mouse liver cytosol	50 µM, pH 7.8	–	dehydrogenase activity	1.72 ± 0.37 nmol/min/mg protein
CCCCCCCC/C=C/C=O	CYP2E1	enzyme activity, competitive inhibitor	human liver S9	added: p-nitrophenol substrate	–	Ki	3.4 ± 0.1 µM
N=C(N)NC(=N)NC1Cc2ccccc2C1	SLC22A1 (Homo sapiens, UniProt O15245)	transporter uptake, inhibitor, radiometric	–	–	–	IC50	22.1 µM and 22 µM
O=C1C[C@@H](c2ccc(O)cc2)Oc2cc(O)cc(O)c21	UDP-glucuronosyltransferases, rat	–	Wistar rat, colon microsomes	10 µM, 30 min, pH 7.4	relative to: jejunum over colon microsomes	glucuronidation rate ratio	~2.5
CCCCC=O	CYP2E1	competitive inhibitor	human liver S9	added: p-nitrophenol substrate	–	Ki	155 ± 13 µM
Nc1ncn([C@@H]2O[C@H](CO)[C@@H](O)[C@H]2O)c(=O)n1	CYP2E1	enzyme activity, inhibitor	human liver microsomes	100 µM, added: chlorzoxazone 40 µM	–	inhibition	27%
CC1=N[C@]2(C(=O)CO)[C@@H](C[C@H]3[C@@H]4C[C@@H](O)C5=CC(=O)C=C[C@]5(C)[C@H]4[C@@H](O)C[C@@]32C)O1	CYP2C9	–	pooled human liver microsomes	30 min preincubation, added: diclofenac probe and NADPH	–	IC50	> 50 µM
C=C	CYP2E1	substrate, headspace gas uptake, item: ethylene oxide formation	human, pooled liver microsomes	–	–	Km	13 ± 1 µM
Cc1noc(C)c1Cn1cc(N2C(=O)CN(Cc3cccc(O)c3)C2=O)cn1	CYP2C9	enzyme activity, inhibitor, fluorescence	Sf9	10 µM	–	inhibition	34%
CN1CCN(CCCN2c3ccccc3Sc3ccc(C(F)(F)F)cc32)CC1	UGT1A4 (Homo sapiens, UniProt P22310)	nicotine glucuronidation, inhibitor	microsomes of transfected HEK293	100 µM, pH 7.4, added: nicotine	–	inhibition	68%
6-carboxyfluorescein	SLCO2A1 (Homo sapiens, UniProt Q92959)	uptake, substrate	HEK293F expressing SLCO2A1	pH 6.0	–	Km	84.1 ± 31.8 µM
O=C(O)CCCCCCCCCCCCCCC(=O)O	OATP1B1	–	human, plasma	concentration not given, 12 h after first cyclosporine dose, genotype TC, added: oral cyclosporine plus pravastatin	–	trough plasma concentration	70.3 nM
COc1cc(CCc2cnc3ccn(S(=O)(=O)c4c[nH]cn4)c3n2)cc(OC)c1	CYP2C9	enzyme activity, inhibitor	human, liver microsomes	10 µM, 20 min, pH 7.4	–	inhibition	97%
CCC=CC=O	CYP2E1	enzyme activity, competitive inhibitor	human liver S9	added: p-nitrophenol substrate	–	Ki	13 ± 1 µM

Substance	tested on	assay	test system	setting	scale	quantity	result
O=c1[nH]c(=O)c(Cc2cccc(C(F)(F)F)c2)c([C@H]2CC[C@H](c3ccccc3)CC2)[nH]1	CYP2C19 (Homo sapiens, UniProt P33261)	–	human, plasma	oral, 600 mg, day 1, geometric mean	–	AUC(0-last)	6140 ng·h/mL
Cc1coc2c1CC[C@@H](C)C2	Cytochrome P450 2A6 (CYP2A6, Homo sapiens, UniProt P11509)	inactivator, reduced CO spectrum	reconstituted enzyme	20 µM, 10 min, 30 °C	relative to: without NADPH	spectrally active P450 remaining	36 ± 4.6%
CC(=O)N[C@@H](CO)C(=O)N[C@@H](Cc1ccc(O)cc1)C(=O)N[C@@H](CO)C(=O)N[C@@H](C)C(=O)N[C@@H](CCC(=O)O)C(=O)N[C@@H](Cc1c[nH]cn1)C(=O)N[C@H](Cc1ccccc1)C(=O)N[C@@H](CCCNC(=N)N)C(=O)N[C@@H](Cc1c[nH]c2ccccc12)C(=O)NCC(=O)N[C@@H](CCCCN)C(=O)N1CCC[C@H]1C(=O)N[C@H](C(N)=O)C(C)C	Melanocortin receptor 5	–	–	–	–	EC50	0.053 ± 0.004 nM
Cc1ccc2oc(=O)ccc2c1	cysteine peptide Ac-RFAACAA-COOH	peptide depletion, DPRA RapidFire-MS/MS	–	24 h, pH 7.5, room temperature, added: 5.0 µM cysteine peptide	–	IC50	inactive
Nc1ncnc2c1ncn2[C@@H]1O[C@H](COP(=O)(O)OP(=O)(O)O)[C@@H](O)[C@H]1O	ATP1A1 (Sus scrofa, UniProt P05024)	binding, radioligand binding	pig membranes	pH 7.7, 0 °C, ionic strength 528 mM, added: NaCl 469 mM	–	Kd	7.11 ± 0.124 µM
O=C(O)c1cc(/N=N/c2ccc(S(=O)(=O)Nc3ccccn3)cc2)ccc1O	Abcg2	substrate	Sprague-Dawley rat, male, plasma	oral, 2 mg/kg, added: 3,6,3',4'-tetramethoxyflavone 5 mg/kg	–	AUC(0-t)	319 ± 25 ng·h/mL
O=C(O)c1cc(/N=N/c2ccc(S(=O)(=O)Nc3ccccn3)cc2)ccc1O	Abcg2	substrate	rat, plasma	oral, dose not given, added: elacridar constant infusion	relative to: with over without elacridar	Cmax fold increase	2 fold
CCC/C=C/C=O	cysteine peptide Ac-RFAACAA-COOH	peptide depletion, DPRA RapidFire-MS/MS	–	24 h, pH 7.5, room temperature, added: 5.0 µM cysteine peptide	–	IC50	55.8 µM
COc1c(Cl)c(C)c(C=O)c(O)c1C/C=C(C)/C=C/[C@@]1(C)[C@H](C)CCC(=O)[C@@H]1C	Wickerhamomyces anomalus	O2 uptake, inhibitor	mitochondria	added: glycerol 3-phosphate 20 mM	–	IC50	5.8 µM
CSCC[C@H](NC(=O)[C@H](CO)NC(=O)[C@H](Cc1ccc(O)cc1)NC(=O)[C@H](CO)NC(C)=O)C(=O)N[C@@H](CCC(=O)O)C(=O)N[C@@H](Cc1c[nH]cn1)C(=O)N[C@@H](C)C(=O)N[C@@H](CCCNC(=N)N)C(=O)N[C@@H](Cc1c[nH]c2ccccc12)C(=O)NCC(=O)N[C@@H](CCCCN)C(=O)N1CCC[C@H]1C(=O)N[C@H](C(N)=O)C(C)C	Melanocortin receptor 5	–	–	–	–	EC50	4200 ± 2100 nM
N=C(N)NC(=N)NCC(c1ccccc1)c1ccccc1	SLC22A2 (Homo sapiens, UniProt O15244)	transporter uptake, inhibitor, radiometric	–	–	–	IC50	53 µM and 52.7 µM
O=C(O)CCCCCCCCCCCCC(=O)O	OATP1B1	–	human, plasma	concentration not given, 12 h after first cyclosporine dose, genotype TT, added: oral cyclosporine plus pravastatin	–	trough plasma concentration	77.7 nM
CS(=O)(=O)c1ccc([C@@H](O)[C@@H](CF)NC(=O)C(Cl)Cl)cc1	BCRP (chicken)	efflux transport, bidirectional transport	MDCK expressing chicken Abcg2	20 µM, added: allicin 5 µM preincubated 2 h	–	net efflux ratio	1.52 ± 0.1
O=C(/C=C/c1ccc(O)c2c1[C@H](C(=O)O[C@H](Cc1ccc(O)c(O)c1)C(=O)O)[C@@H](c1ccc(O)c(O)c1)O2)O[C@H](Cc1ccc(O)c(O)c1)C(=O)O	SLC22A8 (Homo sapiens, UniProt Q8TCC7)	transporter uptake, inhibitor	HEK293	100 µM	–	inhibition	> 50%
Nc1ncnc2c1ncn2[C@@H]1O[C@H](COP(=O)(O)OP(=O)(O)NP(=O)(O)O)[C@@H](O)[C@H]1O	Lrrk2 (Mus musculus, UniProt Q5S006)	enzyme activity, inhibitor, radiometric	–	–	–	Ki	1800 µM
CN1Cc2c(Cl)cc(Cl)cc2[C@H](c2cccc(S(=O)(=O)NCCOCCOCCNC(=O)NCCCCNC(=O)NCCOCCOCCNS(=O)(=O)c3cccc([C@@H]4CN(C)Cc5c(Cl)cc(Cl)cc54)c3)c2)C1	human CYP3A4/5	enzyme activity, inhibitor, item: oxidized nifedipine	human liver microsomes	10 min, added: nifedipine 25 µM	–	IC50	0.68 ± 0.157 µM

Repeated from above:
Substance	tested on	assay	test system	setting	scale	quantity	result
CN1CCN(CCCN2c3ccccc3Sc3ccc(C(F)(F)F)cc32)CC1	UGT1A4 (Homo sapiens, UniProt P22310)	nicotine glucuronidation, inhibitor	microsomes of transfected HEK293	100 µM, pH 7.4, added: nicotine	–	inhibition	68%
O=C(O)CCCCCCCCCCCCCCC(=O)O	OATP1B1	–	human, plasma	concentration not given, 12 h after first cyclosporine dose, genotype TC, added: oral cyclosporine plus pravastatin	–	trough plasma concentration	70.3 nM
Nc1ncnc2c1ncn2[C@@H]1O[C@H](COP(=O)(O)OP(=O)(O)O)[C@@H](O)[C@H]1O	ATP1A1 (Sus scrofa, UniProt P05024)	binding, radioligand binding	pig membranes	pH 7.7, 0 °C, ionic strength 528 mM, added: NaCl 469 mM	–	Kd	7.11 ± 0.124 µM
